Experimental data collected from several papers.
Numbered parts are unrelated; each lists some results of a single study.

Set 1
Target: Histone acetyltransferase KAT6A, winged helix 1, GST fusion (KAT6A, Homo sapiens, UniProt Q92794, residues 1-85)
Technique: protein binding microarray
Form: double-stranded DNA, one strand shown
Medium: in vitro
Tested at: not given
Setting: 8-mer, flanks averaged, mean of 2 arrays, mostly near background
Baseline: not given
Direction: higher = stronger binding
Target sequence (chain): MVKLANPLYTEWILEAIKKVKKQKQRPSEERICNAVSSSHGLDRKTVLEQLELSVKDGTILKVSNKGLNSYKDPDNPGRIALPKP
`CCCTTCGG` has an E-score of 0.0905.
The E-score of `CAATAGAC` is reported as -0.111.
`CGAGACTA` has an E-score of -0.0706.
`CGATTCCG` has an E-score of 0.317.
With `ATGTCTGC` the E-score was -0.0271.
`CCTCCGCC` has an E-score of 0.324.
The E-score of `CCAAATCA` is reported as -0.141.
For `GAAACCCC`, the E-score was 0.124.
For `ACGGTACT`, the E-score was 0.243.
The E-score of `CCTGTACA` is reported as -0.0808.
With `CAGAAAGG` the E-score was -0.132.
`CGAGGGTA` has an E-score of 0.0118.
`ATCGCCGA` has an E-score of 0.306.
For `AAAGCTAG`, the E-score was -0.252.
`ATAATCGA` gave an E-score of -0.134.
With `CATCTGTA` the E-score was 0.0205.
With `AATTCAGA` the E-score was -0.335.
`AATACTGC` has an E-score of -0.00971.
With `TGCTTAAA` the E-score was -0.178.
For `CATGCAAC`, the E-score was -0.136.

Set 2
Target: Prothrombin, mature alpha-thrombin (F2, Homo sapiens, UniProt P00734)
Technique: aptamer microarray, sandwich
Form: DNA with 2'F-ANA
Medium: in vitro
Tested at: 200 nM
Setting: whole 15-mer aptamer, many near background
With: Cy3 exosite-II aptamer, 400 nM
Direction: higher = stronger binding
Oligonucleotide: GGTTGGTGTGGTTGG
`2'F-ANA at 1 2 6 7 9`: “mean fluorescence intensity” 142 a.u.
For `2'F-ANA at 1 2 3 4 9 10 11 13 15`, “mean fluorescence intensity” read 57 a.u.
`2'F-ANA at 1 3 7 10 12 13 15`: “mean fluorescence intensity” 119 a.u.
`2'F-ANA at 1 3 5 6 8 10 11 12 15`: “mean fluorescence intensity” 71.9 a.u.
For `2'F-ANA at 1 4 5 6 9 10 11 12 14 15`, “mean fluorescence intensity” read 48.8 a.u.
`2'F-ANA at 2 3 6 7 8 12` — result for “mean fluorescence intensity”: 1140 a.u.
For `2'F-ANA at 1 3 6 10 12 13 14`, “mean fluorescence intensity” read 63.1 a.u.
Under “mean fluorescence intensity”, `2'F-ANA at 1 5 6 11 14 15` is recorded as 46.5 a.u.
`2'F-ANA at 2 3 6 9 10`: “mean fluorescence intensity” 346 a.u.
Under “mean fluorescence intensity”, `2'F-ANA at 1 2 3 5 6 7 8 9 14` is recorded as 96.6 a.u.
`2'F-ANA at 1 4 5 6 8 11` — result for “mean fluorescence intensity”: 51.2 a.u.
Under “mean fluorescence intensity”, `2'F-ANA at 4 7 9 10 13 15` is recorded as 114 a.u.
Under “mean fluorescence intensity”, `2'F-ANA at 2 3 6 7 8 11 12 14 15` is recorded as 425 a.u.
For `2'F-ANA at 2 3 6 7 8 10 12 13 15`, “mean fluorescence intensity” read 404 a.u.
`2'F-ANA at 1 2 3 4 7 8 10` — result for “mean fluorescence intensity”: 60.7 a.u.
For `2'F-ANA at 1 2 3 4 5 6 7 9 12`, “mean fluorescence intensity” read 147 a.u.
`2'F-ANA at 3 4 6 7 11 12 15` — result for “mean fluorescence intensity”: 740 a.u.
`2'F-ANA at 2 3 4 7 10 11 12 13 14` — result for “mean fluorescence intensity”: 173 a.u.
Under “mean fluorescence intensity”, `2'F-ANA at 2 4 6 7 14` is recorded as 109 a.u.

Set 3
Target: Sal-like protein 4, full length isoform A (SALL4, Homo sapiens, UniProt Q9UJQ4, residues 1-1053)
Chain of UniProt Q9UJQ4 (whole entry, looked up): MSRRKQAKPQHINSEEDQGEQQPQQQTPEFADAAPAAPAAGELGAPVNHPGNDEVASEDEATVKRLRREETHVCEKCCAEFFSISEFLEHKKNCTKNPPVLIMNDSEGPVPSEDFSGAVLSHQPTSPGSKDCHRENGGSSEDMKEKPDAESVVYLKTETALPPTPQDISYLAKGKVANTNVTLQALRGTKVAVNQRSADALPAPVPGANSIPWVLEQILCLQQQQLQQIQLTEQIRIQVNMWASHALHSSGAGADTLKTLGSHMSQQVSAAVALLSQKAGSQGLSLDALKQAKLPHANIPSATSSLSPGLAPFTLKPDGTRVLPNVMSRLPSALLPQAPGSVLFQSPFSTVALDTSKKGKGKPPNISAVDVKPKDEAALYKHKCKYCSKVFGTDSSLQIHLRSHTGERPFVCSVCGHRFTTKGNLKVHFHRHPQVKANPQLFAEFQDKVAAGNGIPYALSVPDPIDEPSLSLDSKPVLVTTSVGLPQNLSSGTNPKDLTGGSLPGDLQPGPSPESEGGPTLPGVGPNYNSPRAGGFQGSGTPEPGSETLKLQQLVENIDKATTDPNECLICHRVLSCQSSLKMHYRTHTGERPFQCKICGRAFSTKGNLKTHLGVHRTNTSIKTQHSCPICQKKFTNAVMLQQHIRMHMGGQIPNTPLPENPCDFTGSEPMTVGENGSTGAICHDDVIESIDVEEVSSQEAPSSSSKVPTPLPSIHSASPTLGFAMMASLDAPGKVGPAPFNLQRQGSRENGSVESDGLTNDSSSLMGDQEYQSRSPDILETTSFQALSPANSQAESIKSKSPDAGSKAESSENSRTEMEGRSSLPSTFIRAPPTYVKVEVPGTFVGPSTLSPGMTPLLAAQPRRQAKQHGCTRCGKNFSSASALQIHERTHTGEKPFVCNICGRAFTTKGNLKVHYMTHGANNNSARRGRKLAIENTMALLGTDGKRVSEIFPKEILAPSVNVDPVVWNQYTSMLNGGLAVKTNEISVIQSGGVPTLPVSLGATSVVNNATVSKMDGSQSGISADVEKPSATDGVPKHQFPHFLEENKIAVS
Technique: universal PBM
Form: double-stranded DNA, one strand shown
Medium: in vitro
Tested at: 600 nM
Setting: 8-mer, flanks averaged, mean of replicates
Direction: higher = stronger binding
With `CCTGGAAG` the E-score was -0.172.
With `GACGAAAA` the E-score was 0.206.
With `AGTGTTTC` the E-score was 0.0879.
`ATAGTTCG` has an E-score of 0.118.
With `ATCTGCAC` the E-score was -0.0181.
For `CACAGCAA`, the E-score was 0.0907.
For `CGAGGCCC`, the E-score was -0.308.
With `GCCCACGC` the E-score was -0.363.
With `CATGGTCG` the E-score was -0.138.
With `ATGGGATG` the E-score was -0.0943.
With `AGATAACA` the E-score was 0.238.
With `GCGGGGCC` the E-score was -0.391.
With `CGTCACCC` the E-score was -0.223.
The E-score of `CTACCCTA` is reported as -0.0749.
For `ACATCAGC`, the E-score was -0.00874.
With `AACTCACG` the E-score was 0.035.
The E-score of `CAACGGCG` is reported as -0.293.
For `ATCTCCCA`, the E-score was -0.0342.
With `CAAGATGC` the E-score was 0.0558.
The E-score of `ACACCGCC` is reported as -0.205.
`GTCACGCA` has an E-score of -0.154.
`CTAGTGAC` has an E-score of 0.0819.
For `CTCATGAA`, the E-score was 0.132.
With `CGACTTCC` the E-score was -0.136.
With `ACAGTCAC` the E-score was -0.0586.

Set 4
Target: Microphthalmia-associated transcription factor, full length (MITF, Homo sapiens, UniProt O75030-10, residues 1-413)
Technique: protein-binding microarray
Form: double-stranded DNA, one strand shown
Medium: in vitro
Tested at: not given
Setting: k-mer, scored over probes, only values ≥0.25
Direction: higher = stronger binding
For `GTCACGA`, the E-score was 0.449.
`GTATGAC` has an E-score of 0.272.
The E-score of `ACGTGTC` is reported as 0.39.
`GGCGTGA` has an E-score of 0.263.
For `AGTCACA`, the E-score was 0.333.
`ACCCGTG` gave an E-score of 0.393.
The E-score of `GCATCAC` is reported as 0.268.
The E-score of `ACGTGCC` is reported as 0.315.
`CACGAGG` gave an E-score of 0.466.
The E-score of `CAACATG` is reported as 0.271.
`GGGTCAC` gave an E-score of 0.361.
For `CCCCTCC`, the E-score was 0.321.
The E-score of `ACGTGAA` is reported as 0.264.
`GCAGTCA` gave an E-score of 0.267.
`ACCCCAC` gave an E-score of 0.371.
`CTCGTGA` has an E-score of 0.484.
The E-score of `ATGTCAC` is reported as 0.365.
For `ACGTCAC`, the E-score was 0.277.

Some of these lines once more (set 3):
The E-score of `ACACCGCC` is reported as -0.205.
`GTCACGCA` has an E-score of -0.154.
`CTAGTGAC` has an E-score of 0.0819.
For `CTCATGAA`, the E-score was 0.132.
With `CGACTTCC` the E-score was -0.136.
With `ACAGTCAC` the E-score was -0.0586.
